Measured values gathered from unrelated publications.
Numbers after ± are the reported error.

With `Cc1cc(Nc2ccc(NC(=O)c3ccc(NC(=O)c4ccncc4)cc3)cc2)nc(N)n1` the reporter reactivation was 1 ± 0.1 fold (KG-1 with methylated CMV-luciferase; luciferase reporter gene; 5 µM, 24 h; reference: untreated).
Under migrating cells, `COc1cc2c(OC3OCC(OC)C(OC)C3OC(=O)c3ccc(Br)cc3)c3c(c(-c4ccc5c(c4)OCO5)c2cc1OC)C(=O)OC3` (centres unmarked) is recorded as “decreased” (CAL-27; transwell; 0.1 and 1 µM, 36 h; reference: DMSO).
`CCOC(=O)c1csc2nc(-c3cccc(NC(=O)c4cc5cc(NC(=O)C(C)Cl)ccc5n4Cc4ccc(C(F)(F)F)cc4)c3)cn12` (centres unmarked) — result for “intracellular ROS level”: “increased” (RAW264.7; 10 µM, with: LPS; reference: control).
The viability of `COc1cccc(/C=N/NC(=O)COc2ccc(/C=N/NC(=O)C(C)c3ccc(CC(C)C)cc3)cc2)c1O` (centres unmarked) is reported as 40.4% (U87 MG; MTT; 80 µM, 48 h).
For `COc1cc(CN2CCN(c3ccc(C)cc3)CC2)c2cc3[n+](cc2c1O)CCc1cc2c(cc1-3)OCO2`, the therapeutic index was 32.7 (HeLa and MDCK; SRB; 48 h; reference: CC50 MDCK over IC50 HeLa).
`CC(C)=CCc1c(OCC2OC2(C)C)ccc2ccc(=O)oc12` (centres unmarked) has a combination index of 0.64 (COLO 320 (ABCB1-overexpressing, multidrug-resistant); cell growth; 150 µM starting, CI at ED50, with: doxorubicin, ratio 278.72:1).
With `COc1cc(CNC(=O)C[C@H](C)CCC=C(C)C)ccc1OCc1cn(-c2ccccc2[N+](=O)[O-])nn1` the growth percent was 14.6% (T47D breast cancer cells; SRB; 10 µM, 48 h).
`Cc1ccc(CN2C(=O)/C(=N\c3ccc(Cl)cc3Br)c3ccccc32)cc1` gave an apoptotic cells of 30.9% (B16; 0.8 µM, 48 h).
For `Clc1ccc(NN=C(c2ccccc2)c2ccccn2)nc1`, “number of downregulated genes” read roughly 20 (NCI-H358; microarray; concentration not given, 4 h; within time).
The growth percent of `COc1cc(CNC(=O)C[C@H](C)CCC=C(C)C)ccc1OCc1cn(-c2ccc(Cl)cc2Cl)nn1` is reported as 98.2% (MDA-MB-435 melanoma cells; SRB; 10 µM, 48 h).
Under “C9orf72 total transcript level”, `Cc1c2ccnc(C(=O)N[C@H](C)CN(C)C)c2cc2c3cc(OCCCN4CCN(C)CC4)ccc3n(C)c12` is recorded as “no effect” (healthy donor LCLs, iPSCs or iPSNs; no effect, qRT-PCR, item: all C9orf72 transcripts; concentration not given).
With `C[N+]1(CC(=O)OC2CCCCCCCCCCC2)CCCCC1` the ED70 was 11.3 µM (DU-145; cell viability, CellTiter Blue; 96 h).
With `FC(F)(F)c1ccnc(-c2cc(C(F)(F)F)ccn2)c1.FC(F)(F)c1ccnc(-c2cc(C(F)(F)F)ccn2)c1.[Cl-].[Cl-].[Ru+2].c1csc(-c2ccc(-c3ccc(-c4nc5c6cccnc6c6ncccc6c5[nH]4)s3)s2)c1` the EC50 was 4600 nM (SK-MEL-28; cell viability; normoxia, with: red light 633 nm).
For `C=CCc1ccc(OC(=O)CSc2nnc([C@]3(C)C4CC[C@]5(C)C(C(=O)C=C6C7[C@@H](C)[C@H](C)CC[C@]7(C)CC[C@]65C)[C@@]4(C)CC[C@H]3OC(C)=O)o2)c(OC)c1` (some centres unmarked), the inhibition was 76.2% (RAW264.7; NO release, inhibitor, Griess; 10 µM, 24 h, LPS-stimulated).
`COc1cc(CNC(=O)C[C@H](C)CCC=C(C)C)ccc1OCc1cn(-c2cccc([N+](=O)[O-])c2)nn1` gave a growth percent of 58.9% (T47D breast cancer cells; SRB; 10 µM, 48 h).
For `COCCO[C@H]1CC[C@H](Nc2cc(=O)n(C)c3ccc(-c4cncs4)cc23)CC1`, the IFN-γ level was 21.1% (PBMC; ELISA; 10 µM, 288 h).
`COc1ccc(S(=O)(=O)N2CCc3ccccc3C2)cc1N1CCN(C(=O)c2ccc(F)cc2C(F)(F)F)CC1` — result for “TH-positive neuron count”: 356 ± 36.7 (mouse midbrain dopamine neurons; 75 nM, 5 days).
`O=C(Nc1cc(Cl)ccc1O)c1nn2c(C(F)(F)F)cc(-c3cc(Br)cs3)nc2c1Br`: TNF-alpha level “increased” (healthy donor PBMC; ELISA; 2.5 µM, 48 h).
With `C[C@H](NC(=O)CNC(=O)[C@H](CCC(=O)O)NC(=O)[C@H](CCC(=O)O)NC(=O)[C@H](CC(=O)O)NC(=O)[C@@H]1CCCN1C(=O)[C@H](Cc1ccccc1)NC(=O)[C@H](CS)NC(=O)[C@H](Cc1ccc(O)cc1)NC(=O)CCCNC(=O)CNC(=O)CNC(=O)[C@@H](C)NC(=O)CN)C(=O)N[C@@H](CS)C(=O)N[C@@H](Cc1ccc(O)cc1)C(N)=O` [technetium-99m labelled] the internalization was 9.81 ± 0.17% (SK-BR-3; 4 h, 37 °C).
With `CC(C)C(=O)Cc1c(OCC(O)C(C)(C)O)ccc2ccc(=O)oc12` (centres unmarked) the combination index was 0.81 (COLO 320 (ABCB1-overexpressing, multidrug-resistant); cell growth; 200 µM starting, CI at ED50, with: doxorubicin, ratio 371.2:1).
With `CC(C)C[C@@H](NC(=O)[C@H](C)NC(=O)CNC(=O)[C@@H](NC=O)C(C)C)C(=O)N[C@@H](C)C(=O)N[C@@H](C(=O)N[C@H](C(=O)N[C@@H](C(=O)N[C@@H](Cc1c[nH]c2ccccc12)C(=O)N[C@H](CC(C)C)C(=O)N[C@@H](Cc1c[nH]c2ccccc12)C(=O)N[C@H](CC(C)C)C(=O)N[C@@H](Cc1c[nH]c2ccccc12)C(=O)N[C@H](CC(C)C)C(=O)N[C@@H](Cc1c[nH]c2ccccc12)C(=O)NCCO)C(C)C)C(C)C)C(C)C` the EC50 was 67 ± 5 nM (digitonin-permeabilized MCF7; mitochondrial ATP production, inhibitor; 37 °C).
With `Cc1ccc(Nc2ncc3c(n2)N(C)C(=O)N(c2cc(NC(=O)c4ccc(CN5CCC(N(C)C)C5)c(C(F)(F)F)c4)ccc2C)C3)cn1` (centres unmarked) the GI50 was 34 nM (Huh-7; cell growth or viability, ATP luminescence; 72 h).
`COc1cc(CNC(=O)C[C@H](C)CCC=C(C)C)ccc1OCc1cn(-c2ccc(C#N)cc2)nn1` gave a growth percent of 76% (Hs-578T breast cancer cells; SRB; 10 µM, 48 h).
Under DNA synthesis, `O=c1[nH]c(N2CCC3(CC2)CN(CCO)c2cc(F)cc(F)c23)nc2c1CCCC2` is recorded as “decreased” (COLO 320DM; BrdU incorporation; concentration not given, 48 h).
Under “Tnfα mRNA level”, `CCOC(=O)c1nc2cc(Cl)c(Cl)cc2nc1N1CCN(C(=O)Nc2ccc(N3CCNCC3)cc2)CC1` is recorded as “increased” (RAW264.7; qRT-PCR; concentration not given, with: LPS; reference: LPS alone).
With `COc1cc(CNC(=O)C[C@H](C)CCC=C(C)C)ccc1OCc1cn(-c2ccccc2Cl)nn1` the growth percent was 67.6% (ACHN; SRB; 10 µM, 48 h).
Under protein level, `N#Cc1cccc(/C=C/C(=O)c2ccc(O)cc2)c1` is recorded as “decreased” (U-87 MG and D54; western blot, item: E2F1 and RAD51; concentration not given, 24 h).
For `CN1CCc2cc(Nc3ncc(C(F)(F)F)c(NCc4cc[nH]n4)n3)ccc2C1`, G2/M cells read “increased” (GL261; concentration not given, 24 to 72 h; reference: untreated).
With `CC1CCN(c2ccc3nc(-c4cccc(N5CCc6ccccc6C5)n4)[nH]c3c2)CC1` the EC50 was 670 nM (HT-22; protection from ferroptosis, CCK-8 viability; 24 h, with: 1 µM erastin).
`COc1cc(CNC(=O)C[C@H](C)CCC=C(C)C)ccc1OCc1cn(-c2ccc(Br)cc2)nn1` gave a growth percent of 49.3% (T47D breast cancer cells; SRB; 10 µM, 48 h).
`CN1CCN(C(=O)N(CCCCCCC(=O)NO)c2ccc(-c3ccc4cnn(C)c4c3)cc2)CC1` — result for protein level: “decreased” (MM1.S and RPMI-8226; immunoblot, item: BCL-xL; concentration not given, 24 h).
`CC(C)Cc1ccc(C(C)C(=O)NN=Cc2ccc(OCC(=O)NN=Cc3cccc([N+](=O)[O-])c3)cc2)cc1` (centres unmarked) gave a viability of 80.5% (U87 MG; MTT; 10 µM, 48 h).
The kinact/KI of `C=CC(=O)N1C[C@H](C)N(c2nc(OC[C@@]34CCCN3C[C@H](F)C4)nc3c(F)c(-c4ccc(F)c5sc(N)c(C#N)c45)c(C(F)(F)F)cc23)C[C@H]1C` is reported as 43000 M⁻¹ s⁻¹ (NCI-H358 (KRAS G12C); HTRF, item: pERK).
`CC(C)CNC(=O)[C@@H](NC[C@@H](O)[C@H](Cc1ccccc1)NC(=O)c1cc(C(=O)N[C@H](C)c2ccccc2)cc(N(C)S(C)(=O)=O)c1)[C@H](C)O` — result for Tmem27 processing: “inhibited” (MIN6; Western blot, item: Tmem27 C-terminal fragment; 0.9 µM, with: DAPT).
`COc1cc(CNC(=O)C[C@H](C)CCC=C(C)C)ccc1OCc1cn(-c2cccc(Cl)c2)nn1` has a growth percent of 93.8% (MDA-MB-435 melanoma cells; SRB; 10 µM, 48 h).
`CC(=O)OC[C@H]1O[C@@H](Sc2sc(C(=O)c3ccc(C)cc3)c(N)c2-c2nc3ccccc3s2)[C@H](OC(C)=O)[C@@H](OC(C)=O)[C@H]1OC(C)=O` has a growth of 87% (ACHN; SRB; 10 µM, 48 h; reference: untreated).
For `COc1cc(CNC(=O)C[C@H](C)CCC=C(C)C)ccc1OCc1cn(-c2ccc([N+](=O)[O-])cc2)nn1`, the growth was 62.7% (LOX IMVI; SRB; 10 µM, 48 h).
For `CC(C)Cc1ccc(C(C)C(=O)N/N=C/c2ccc(OCC(=O)N/N=C/c3c(O)ccc4ccccc34)cc2)cc1` (centres unmarked), the viability was 121% (U87 MG; MTT; 10 µM, 48 h).
